Results of several laboratories.
Lines come from different studies, so protocols differ. pIC50: −log10 of the molar value.
Organism: HIV-1

CC(=NNC(=O)CN1c2c(-c3ccccc3)n[nH]c2-c2ccccc2S1(=O)=O)c1ccc(Br)s1
EC90 (viral replication; PBMC): > 100 µM

O=C(C1=C(O)c2ccccc2S(=O)(=O)N1)c1cccc(Cl)c1
EC90 (viral replication; PBMC): > 100 µM

N#C[C@]1(CO)O[C@@H](n2cnc3c(N)nc(N)nc32)C[C@@H]1O
pIC50 (MT-4): 9.52

O=C(CN1c2c(-c3ccccc3)n[nH]c2-c2ccccc2S1(=O)=O)NN=Cc1cccs1
EC90 (viral replication; PBMC): > 100 µM

Cc1ccc(N2C(=O)CCC2(CN)c2ccc(OCc3ccccc3)cc2)cc1 (stereo not shown)
EC90 (viral replication; human PBMC, LAI): 41.5 µM

CN(C)c1ccc(C=NNC(=O)CN2c3c(n[nH]c3-c3cccc(Cl)c3)-c3ccccc3S2(=O)=O)cc1
EC90 (viral replication; PBMC): 13.3 µM

CC(=NNC(=O)CN1c2c(-c3ccccc3)n[nH]c2-c2ccccc2S1(=O)=O)c1ccsc1
EC90 (viral replication; PBMC): 89.3 µM

Cc1ccc(N2C(=O)CCC2(C#N)c2ccc(OCc3ccc(Cl)cc3Cl)cc2)cc1 (stereo not shown)
EC90 (viral replication; human PBMC, LAI): 24.4 µM

COC(=O)CN1C(C(=O)c2cccc(Cl)c2)=C(O)c2ccccc2S1(=O)=O
EC90 (viral replication; PBMC): 73.7 µM

Cc1nc(C(NC(=O)c2ccc(-c3ccc(Cl)cc3)[nH]2)C2CCCCN2)sc1CO (mixture of isomers)
sensitive viruses (viral entry; TZM-bl, panel of 56 Env pseudoviruses; up to 3 µM): 82%

Repeated from above:
CC(=NNC(=O)CN1c2c(-c3ccccc3)n[nH]c2-c2ccccc2S1(=O)=O)c1ccsc1
EC90 (viral replication; PBMC): 89.3 µM
